# Results pooled from the literature.
# Each numbered part is a random draw from the data of one study; scales do not carry over between parts. Changes are numbered by the printed parent chain.

# Set 1
# Target: ABI1, truncated, D143A, DHFR fusion (Arabidopsis thaliana)
# Method: DHFR PCA, deep sequencing
# Medium: yeast
# Notes: methotrexate growth selection, single substitutions
# Added: (+)-ABA 58 µM
# Relative to: wild-type fitted maximum
# Reading: higher = stronger binding
# Starting sequence: PYL1, truncated, DHFR fusion (Arabidopsis thaliana); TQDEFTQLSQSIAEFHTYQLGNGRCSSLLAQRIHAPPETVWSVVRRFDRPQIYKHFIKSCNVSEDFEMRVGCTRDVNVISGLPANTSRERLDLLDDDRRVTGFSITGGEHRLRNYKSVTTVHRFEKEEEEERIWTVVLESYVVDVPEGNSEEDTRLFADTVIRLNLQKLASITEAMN
Substitution,relative binding score [%]
K168N,92.6
V143M,62.7
Q19G,87.5
V43P,-14.8
T173N,45.7
I52Q,85.9
K126N,96.1
L91F,-0.761
D48A,39.3
Y115E,-4.25
E151K,82.8

# Set 2
# Target: CCND2, cyclin fold, Cln2 fusion (human)
# Method: yeast growth competition, sequencing
# Medium: yeast
# Notes: weak parent motif
# Relative to: not given
# Reading: higher = stronger binding
# Starting sequence: RBL2 docking peptide (human); STTRRRLFVENDS
Substitution,normalised enrichment score
R5D,-0.0684
T2N,0.157
S13M,0.285
S1W,-0.185
T3G,0.176
S1R,0.82
D12F,0.149
E10D,0.61
N11V,0.202
R6V,0.32
T3D,0.358
R4G,-0.123
N11I,0.0149
L7H,0.0771
L7E,0.598
R5S,-0.177

# Set 3
# Target: Fragile X messenger ribonucleoprotein 1, C-terminal low-complexity region (Fmr1, Mus musculus, UniProt P35922)
# Method: RNA Bind-n-Seq
# Form: RNA
# Medium: in vitro
# Concentration: 200 nM
# Notes: whole 134-nt RNA, ends assumed
# Added: 150 mM LiCl
# Relative to: input library
# Reading: higher = stronger binding
# All molecules: 7-deaza-guanosine replaces G
Oligonucleotide,log2 enrichment
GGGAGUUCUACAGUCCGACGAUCUGGGAGGUGGAUUUUGUUUAUUUUUUUAGCUCAUUUCCAGGGGUGGGAAUUUUUUUUUAAUAAGUGUCAUGAAUAAAGUUGUUUUUGAAAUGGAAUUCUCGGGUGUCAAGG,-0.108
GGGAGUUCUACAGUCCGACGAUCUGGGAGGUGGAUUUUGUUUAUUUUUUUAGCUCAUUACCAGGGGUGGGAAUUUUUUUUUAAUAUGUGUCAUGAAUAAAGUUGUUUUUGAAAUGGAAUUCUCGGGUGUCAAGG,0.78
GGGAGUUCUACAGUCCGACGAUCACCAUGCAGGUGGGCAUCUUUGGGAAGUGGGGCAAGGGGGGGAUAGGGAGGGGGGUAACACUUAGGGAACAGGUGGUCCCAGGUCGUUUCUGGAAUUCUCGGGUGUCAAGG,1.6
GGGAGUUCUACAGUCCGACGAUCCAAGUCCUGUGCUACACAUCGUAUGUACCGAAUCGGAAAAGGAAAAGGAAAAGGGGAAAGUAUUAUGUUACGCCGUUCGGAUCUGCACUUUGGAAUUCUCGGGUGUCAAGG,-1.13
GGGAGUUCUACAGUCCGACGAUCGUCCUGUGCUACACAUCGUAUGUACCGAAUCGGGGUGGGGUUUUUUUGGGGUUUGGGGAAAGUAUUAUGUUACGCCGUUCGGAUCUGCACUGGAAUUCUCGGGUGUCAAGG,0.36
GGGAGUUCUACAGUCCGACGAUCCACAGACAACACGCACCCACACAGACACAGAGGGGAGGGGUUGGGAUGGGGACAGGGUGCACAGCAGGGCGGGGUAGGACCCCAGCCCCUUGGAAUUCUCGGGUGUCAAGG,0.0459
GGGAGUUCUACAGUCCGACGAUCCAGCAGUGAGUCUCUUCAGAAAACCCUUUUCUACAGUUAGGGUUGAGUUACUUCCUAUCAAGCCAGUACGUGCUAACAGGCUCAAUAUUCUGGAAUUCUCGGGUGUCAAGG,-1.27
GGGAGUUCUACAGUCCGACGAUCGUCCUGUGCUACACAUCGUAUGUACCGAAUCGGGGUUUUUGGGGUUUUUGGGGAGGGGAAAGUAUUAUGUUACGCCGUUCGGAUCUGCACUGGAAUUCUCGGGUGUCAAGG,-0.012
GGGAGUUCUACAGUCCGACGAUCUAACUUUAGAGGAGGAUCUGAUGGAUAUGGCAGUGGACGUGGAUUUGGGGAUGUCUAUAAUGGGUAUGGAGGAGGACCUGGAGGUGGCAAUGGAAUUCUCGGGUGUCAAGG,0.225
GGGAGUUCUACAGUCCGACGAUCUUCCUCAGGGUAGAACUGGAUGACUCAGACGUGUUCCAUGGUGAACCUGAACCUGAGGAGCUGCCUGGAGGUAAGGGCCCUGAACUGUCCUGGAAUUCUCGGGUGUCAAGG,-2.56
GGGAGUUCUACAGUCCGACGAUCUAACUUUAGAGGAGGAUCUGAUGGAUAUGGCAGUGGACGUGGAUUUGGGGAUGGCUAUAAUGGGUAUAGAGGAGGACCUGGAGGUGGCAAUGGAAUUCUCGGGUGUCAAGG,0.268

# Other studies, line by line
Molecule,target,assay,system,setting,scale,endpoint,result
"PhoQ, residues 284 288 289 292 302 303 SSYNSA","PhoP, residues 12 14 15 18 19 YHFSH (Escherichia coli, UniProt P23836)","Sort-seq, item: YFP reporter",E. coli,"PhoQ-PhoP variant library, added: 10 µM Mg2+","relative to: high Mg2+ state, higher = stronger signaling",fold induction,8.64
